Assay results gathered from unrelated publications.
Parts stem from different laboratories: compare values within a part only. Positions count from the first letter of the parent shown.

Set 1
Target: RNA binding protein fox-1 homolog 2, RRM domain, GST-SBP tag (RBFOX2, Homo sapiens, UniProt O43251-10, residues 100-194)
Technique: RNA Bind-n-Seq
Molecule type: RNA
Sample: in vitro
Concentration: 365 nM
Setting: natural RNA segment, single round, ends assumed
Baseline: no-protein control
Reading: higher = stronger binding
Endpoint: RBNS enrichment (R)
Shared flanks, not repeated: GGGAGUUCUACAGUCCGACGAUC … UGGAAUUCUCGGGUGCCAA
Target sequence (chain): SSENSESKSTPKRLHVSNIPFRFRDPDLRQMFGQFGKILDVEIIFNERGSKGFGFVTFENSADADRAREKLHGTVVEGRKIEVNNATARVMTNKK
UUCCCCUCACUCCUCCCCUCCUUCGCUCGCUCAACCUCUUUUGUUCAGUAUGUGUAACUUGAAGCUAAUUUGUACUACUGGAUAUCUGACUGGAGCCACAGAUACAGAAU: 0.591
AGAGGGACUUCGAUGCCAAACCAGACUCGGGUCCCCUCCUGCUUCCCUUCCCCACUUAUCCCCCAAGUGCCUUCCCUCAUGCCUGGGCCGGCCUGACCCGCAAUGGGCAG: 0.36
AUUAAACCAAGUAACAUUGGGUCCUUUUUAGGUCCCACUUAAGCUGCUCUCCUGUGUGUGCUGAGGGCCAGCCUCACCCCAGGCUAGCCUGGACCCCCAGUGCUCCCUGU: 0.242
CCAACGUGCUGGGAUUACAGGUGUGAGCCACUACGCCCCGGCCCAACUGGAUGGUUUUUGAUUGAAGCCUAGAACAUCUGUAGAGACAAACUCUACCCAGUCUUUUCUAG: 0.314
AUUUCUAGGUAGACCCAAAUGGAACUAAAUCAUGUCACAAGCUGAGAGAAUUACUGAGUUCCUCUCAGGACCCCUGAAGAAGCUAUAAGUCAGUACCAGUAGCUUCAGGG: 0.518
UAGGAUUCUCACCGUGGGGCUGGAAGAAAAGAGCAUCGACUUGAUUUCUCCAACCACUCAUCCCUCUUUUUCUUUCUUCCACCACUCCCCACCCCAGCUGUAGUUAAUUU: 1.07
GCUCGGCCCUGUCCUCCUCACAGGCUGGUGUGGCCGUCAGGGUGGGUGGGGUUAUUGUUAGUAGGCGCAGCCUCAUUCCCACCACGAUCUGUUCCGCGUGGUUCCCGCCA: 0.698
UGAACUCCAGUCUUCAGCUCGAAGUUGCCUCUAGGGUUCCUCCUGGUCACCCCCGGGCCCAGCCUGGCUGGCGAGAAACAAACACGGUUUGAGAGGCUGUGGCACACUGA: 0.372
UUCUUGCGUCUCCCUGUGAUGGGCCCUUAGGCCUGGCUGGGCCCAUUACAUAUCCCUGUGGUGGCUCUGGUGGCAGCUUUCUGUGGCCCCUGCUGUGUUGGCAGGCAGGU: 0.54
UUGUGGUUUAUUGAAUGUGAUUUUUCUGCACUAAUAUAAAUUAGACUAAGUGUUUUCAAAUAAAUCUAAAUCUUCAGCAUGAUGUGUUGUGUAUAAUUGGAGUAGAUAUU: 9.89
UAUUCAUGACCAAACUAGCCCUGACACUCAGGGACCUGGGCCUCUGCUGACUGUCAGGAGCAAAACUUGAAGGUGUGGCACCGCAGGACUGGAAGAGAGUGGAACACCUU: 0.787
AGCCUUGGAGCAAAGUUGACCACCACCUUGUGUGGAUCAAGAAGAGAAGAAACUACUUUGGAGUUUUUGAAAAAGCAAGCCAGAAAAUCCACUGAGCCUUCAGCAGAAAU: 0.288

Set 2
Target: CCNE1, cyclin fold, Cln2 fusion (human)
Technique: yeast growth competition, sequencing
Sample: yeast
Setting: weak parent motif
Baseline: not given
Reading: higher = stronger binding
Endpoint: normalised enrichment score
Starting sequence: ORC1 docking peptide (human); PRARKRLELGNLG
K5S: 0.202
K5G: -0.126
R2E: 1.21
E8H: 0.0867
G13W: 0.0339
G13Y: -0.236
A3N: 0.904
N11E: -0.0365
R4A: 0.185
R4L: 0.27
G10R: -0.08
L12R: -0.325
L7S: 0.00569
L7Y: 0.102

Set 3
Target: RING finger protein unkempt homolog, zinc fingers 1-6, GST-SBP tag (UNK, Homo sapiens, UniProt Q9C0B0, residues 30-357)
Chain of UniProt Q9C0B0 (30-357, looked up): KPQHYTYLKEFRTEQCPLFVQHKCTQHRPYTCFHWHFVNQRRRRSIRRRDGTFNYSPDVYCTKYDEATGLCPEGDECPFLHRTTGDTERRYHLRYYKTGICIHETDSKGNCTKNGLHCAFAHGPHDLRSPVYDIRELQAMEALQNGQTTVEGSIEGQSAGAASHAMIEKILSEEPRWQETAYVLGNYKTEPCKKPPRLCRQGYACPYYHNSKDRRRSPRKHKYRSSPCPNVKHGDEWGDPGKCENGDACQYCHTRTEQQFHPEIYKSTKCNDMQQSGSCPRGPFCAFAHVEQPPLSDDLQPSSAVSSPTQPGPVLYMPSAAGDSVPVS
Technique: RNA Bind-n-Seq
Molecule type: RNA
Sample: in vitro
Concentration: not given
Setting: RNA with constant flanks, human and mouse sites, ends assumed
Baseline: input RNA pool
Reading: higher = stronger binding
Endpoint: bound/input enrichment
Shared flanks, not repeated: GGGAGUUCUACAGUCCGACGAUC … CAACAGAGGAUUGAGCAUCA
AGUUUUUCUGCUUCCAAAAUUUUUAUUUCUGCAUUAGCUAUGGAUGGACAACAACUUUUAGUGGCAUAUCCCUGUGCUUUGUUGUAUGGAGUCUUUGCCCUGAUUUCUGUCUUCUGAACU: 0.24 ratio
GCUGAAGUACCACACAUCAGAGAGAGAGUGAUGAGAGAGGGGCGCCACCUGUGCUUCCAGUUAGUAAGCCCAUUGGGAGUAGCCAUUUCUACUCUGAGUUACAUCAACAGGACAAAUCAG: 0.314 ratio
GCAGCAGCGGUCCCAUCGGCUGAAGUUCGGGGGGGGUGGGGCGCCGAGCGCGCGGGGUGGGGGGGGUCCUGGUCUUUGGCUUCUCGACUCGGUCCUGUUUCGACAGCGAACAUGUCGCGG: 2.64 ratio
UCUAUCACUGAUGCUAAAAGUUGUGAGGGACAAAAUCCUGAGCUACUUCCAAAAACUCCUAUUAGUCCUCUGAAAACGGGGGUAUCGAAACCAAUUGUGAAGUCAACUUUAUCCCAGACA: 1.83 ratio
CAGGGCUACCCUCUGAUGGGGUCCCCCUUGCUAAUGACCUCCAUUCUCCUGACCUACGUGUACUUCGUUCUCUCACUUGGGCCUCGCAUCAUGGCUAAUCGGAAGCCCUUCCAGCUCCGU: 0.0887 ratio
UCCUCAUCCAGCAGCACCGACUGGGACCUGGAUUUUGGGAGUCCUGUGGGGAACCAGGGGCAGCAUCCUGGAAAAGGAAGCCCACCAGGAAGCUCCCCACUGCAGGGUCUGGAGAAUUGU: 0.067 ratio
AGCAAAUUCUGUGACUAUGAAAGGAGAUUCCAGAUGACUUUCCAGUUCAGCAUAUGGGACAAAUUUCGGGACUUAGAAAAUUUGCCAGACACUAAGUUCUCAAAUCUGGUUCAUCUGCUG: 0.0682 ratio
GCCAUGUGAGGGGGCUCGGGGGCCGCGGGGGGCCGGGCGCUCCCCGCCGGAGAUGAGGAAACUGAGGCUCAGAGAGGUCACAUGGCUUGCUCGAGGCCCCCCAGCCAGUGUGAACCCACA: 0.0728 ratio
UUUAUACAAGGAGAAGCACUGGAUCCAAAGCAUGUCUGCAACCCAGCCAUUUUCAGGCUAAUAGCUCGUCAGCUUGCUAAAAUCCAUGCUAUUCAUGCACACAAUGGCUGGAUCCCCAAA: 0.182 ratio
UAAGUGAUUUUUUGUUCAUUGUUCCAUGUAAUAUUUUAUACAGAUUUUGAAAUAUGUAAUAAUAUUGAUUCAGUAUUGUGACAGGGUGCAGUUUAAGACAGUGGGAUACAAGAUAAUUUA: 0.25 ratio
GCGGAUGAAGUGCAGCGCUUUUUUUCUGACUGCAAAAUUCAAAAUGGGGCUCAAGGUAUUCGUUUCAUCUACACCAGAGAAGGCAGACCAAGUGGCGAGGCUUUUGUUGAACUUGAAUCA: 0.174 ratio

Set 4
Target: Histone acetyltransferase KAT6A, winged helix 2, GST fusion (KAT6A, Homo sapiens, UniProt Q92794, residues 85-181)
Technique: protein binding microarray
Molecule type: double-stranded DNA, one strand shown
Sample: in vitro
Concentration: not given
Setting: 8-mer, flanks averaged, mean of 2 arrays, mostly near background
Baseline: not given
Reading: higher = stronger binding
Endpoint: E-score
Target sequence (chain): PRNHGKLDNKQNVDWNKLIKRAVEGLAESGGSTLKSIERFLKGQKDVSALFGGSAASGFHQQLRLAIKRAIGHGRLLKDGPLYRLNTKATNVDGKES
AAAAGGTT: 0.0315
ATAAAGTA: 0.0211
GATGGGGC: 0.0606
GCATTTAA: 0.0843
CACGCCCA: 0.0945
AGGGAAAG: 0.0145
AGTCAGTA: 0.0289
AGTTCTAG: 0.103
ATCGCGAG: 0.069
CGTAGCCC: 0.0278
GATGAAGC: -0.102
CAGTATAG: 0.0877
CTTTGGTA: -0.0982
AGCTTGCA: 0.134
ATTCTCAC: 0.0302
ACAAGTGG: -0.21
CAGCGGAC: 0.145
GGTGAACA: 0.0283
CACACTGG: 0.0224
ATAACTCG: 0.0189
GCCCGATA: 0.049
CAAGTTAG: -0.197
ATTTAGAA: 0.0512
ATGATGGG: -0.219

Set 5
Target: ABI1, truncated, D143A, DHFR fusion (Arabidopsis thaliana)
Technique: DHFR PCA, deep sequencing
Sample: yeast
Setting: methotrexate growth selection, single substitutions
Together with: (+)-ABA 0.11 µM
Baseline: wild-type fitted maximum
Reading: higher = stronger binding
Endpoint: relative binding score
Starting sequence: PYL1, truncated, DHFR fusion (Arabidopsis thaliana); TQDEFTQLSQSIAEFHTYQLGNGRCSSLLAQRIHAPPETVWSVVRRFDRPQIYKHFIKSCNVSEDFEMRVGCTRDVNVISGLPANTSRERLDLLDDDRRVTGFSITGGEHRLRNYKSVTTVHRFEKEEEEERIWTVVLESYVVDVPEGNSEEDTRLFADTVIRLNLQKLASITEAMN
Y115H: 11.3%
K58F: -2.95%
E127L: 33.5%
N77T: 68%
S63L: 5.95%
S63Q: 22.6%
Q167W: 12.8%
V100H: -9.17%
L138S: 1.48%
S87V: 59.6%
D95L: -4.63%
E128T: 34.2%
S140N: -6.37%

Some of these lines once more (set 4):
ACAAGTGG: -0.21
ATGATGGG: -0.219
AGGGAAAG: 0.0145
ATTTAGAA: 0.0512
CAGCGGAC: 0.145
ATAAAGTA: 0.0211
GATGGGGC: 0.0606
